# Experimental data of several laboratories.
# A part holds a random share of what one study measured. Positions count from the first letter of the parent shown.

# Series 1
# Target: Phosphate system positive regulatory protein PHO4, full length, GST-tagged (PHO4, Saccharomyces cerevisiae, UniProt P07270, residues 1-312)
# Technique: competition protein-binding microarray
# Form: double-stranded DNA, one strand shown
# Medium: in vitro
# Concentration: 2 µM
# Notes: whole 60-bp probe, lowest competitor level
# Added: Cbf1 competitor, 0.05 µM
# Direction: higher = stronger binding
# All sequences stand within: … GTCTTGATTCGCTTGACGCTGCTG
# Target sequence (chain): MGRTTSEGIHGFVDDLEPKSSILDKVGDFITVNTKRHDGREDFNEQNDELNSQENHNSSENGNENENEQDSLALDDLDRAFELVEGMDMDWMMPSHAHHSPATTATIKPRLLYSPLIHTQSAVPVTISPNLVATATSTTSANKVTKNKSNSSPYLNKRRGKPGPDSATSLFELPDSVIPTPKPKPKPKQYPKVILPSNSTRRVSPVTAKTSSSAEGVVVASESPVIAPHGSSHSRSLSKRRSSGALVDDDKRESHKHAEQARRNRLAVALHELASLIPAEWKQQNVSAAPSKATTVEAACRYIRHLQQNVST
Strand,fluorescence intensity [a.u.]
CATTTATATTAAAATAATACCTACTGTTTCATACTT,3680
AAAGCGGTAATTTTTCACGTGATTTCACATATCTAT,12000
AATCTTGAATGGAGTGACCTGAGACAAGGAGAGGCA,2970
ATATCCGGTATTTTGCCCGTGATGGTTGGTAACTTC,5300
CTTCTGTAAATTTTTCACGTGTAGTGAAGCGCCCCG,12300
CATACCCAACCTTGGGTGGTGGGTGAAGATATTTGT,4700
AGGTCGTCGAGGACGCCCGCGACGCAGTCAAACAGG,3850
CGTCCTAGTGATTGTCACCCGACTTCCATGAGGAAG,4390
CTAAAGATGACCGGATTCGTGATGGGGCTAGACACA,3960
TCGCGAGAAACGTTACACGTTGTTTGGATGAAAACA,11000
AAAGCGGTAATTTGTCACGTGACTTCACATATCTAT,13400
TCCACCCATTGCTGCCGCGTGGACGCAGAATTTCCA,10400
AGCCAGCATTGTTGTCATGCGAGATGTCTAAGAAAA,4720
AAATTACTAAGTTGTTCGGTGGGTGACGCCGTATGA,4320
CGGGGTTAAGTTTGTCCGGTGGGTGGCTTGCAGCAG,4560
CATCCCAATAGAATCCACGTGGGTAAAAGCTACGGC,17300
ATTACAGAAGAACCCCTCGTGACGGCTGGATTACTG,11900
CTTCTGTAAATTTGTCACATCACTTGACGCGCCCCG,4000
TAGAAACAAAGGCTGCATGTGATAGTACACCCTCCA,7430
CTTTCCCGATCTTGAGAAGTGGGTGTAGCACATTTG,4400
CGGGGTTAAGTTTGCCACGTGTTTTGCTTGCAGCAG,16600
CTTTCCCGATCTTGTCACTTTACTTTAGCACATTTG,3470
CGTCCTAGTGATTTTCACGTGCCTTCCATGAGGAAG,14600
CTCCGGAAGAAAGAGCTCGTGGTGATACAATTTCTA,11200

# Series 2
# Target: RNA binding protein fox-1 homolog 2, RRM domain, GST-SBP tag (RBFOX2, Homo sapiens, UniProt O43251-10, residues 100-194)
# Technique: RNA Bind-n-Seq
# Form: RNA
# Medium: in vitro
# Concentration: 365 nM
# Notes: natural RNA segment, single round, ends assumed
# Baseline: no-protein control
# Direction: higher = stronger binding
# All sequences stand within: GGGAGUUCUACAGUCCGACGAUC … UGGAAUUCUCGGGUGCCAA
# Target sequence (chain): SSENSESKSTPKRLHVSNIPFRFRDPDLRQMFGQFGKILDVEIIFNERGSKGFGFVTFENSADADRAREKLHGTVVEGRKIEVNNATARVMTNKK
Strand,RBNS enrichment (R)
UCCACUGACCCUUACAGAUGUAGGUAUACCCUUACUGGAGAGGGAACUCUGAUGAGGAGAUGCUGGUAAAUUAUCAUUUUUUAAAUUGCUGGUGAGUCUGACACUUGGUG,0.495
UACUUUAUAUUUUCUAUAUUUGUAACUUUGCAUGUUCUUGUUUUGUUAUAUAAAAAAAUUGUAAAUGUUUAAUAUCUGACUGAAAUUAAACGAGCGAAGAUGAGCACCAC,0.984
GCCAUAAUUCCACCAUCAUACAGAUCAGGCAGUGUUUAAAAUGAUGGUAGGUAGCACAGUGGACAGUCUUUGAUCAUCAUGUAGAAUAUGGCUAUGAAUCAGGAAAGAGA,0.989
UGCGCCCUGUUCUGUCCUUUCCCAAAGCCCCCUUCUGCCCAUAGCAUGGAUCCAACCCAGGUCACAGGCCUGGGACUUGGUACCCUGGUUGGACACUCCUGAGACUCCAA,0.485
GGAAAUUAUUUUAGGGCUGAGAUAGGGGUGGAACGAGCAGGCUUGUUUCCACCAAUAGUGCCAAGAAGACACUGCCUGAUUCUUCCCCGGGAGGAGUGACUCCUCUGAAG,0.237
AGAAGUCACAUGGGUUCUCAGGGUAUGCCAGGGGCAGAAACAGUACCGGCUCUCUGUCACUCACCUUGAGAGUAGAGCAGACCCUGUUCUGCUCUGGGCUGUGAAGGGGU,0.341
CCUUCUUCUGAUUCCUUUAAGCUCUCCCACCCUUGUGGACUUGGUAGUUAAGAGGUUCCACAGAGUAUUUUCCUUUCUGCUCCCAGUACCUCUCAAACGAUCUUUAGAUA,0.404
UGGGGGGCGCUGAGUAGGGACUCAGGGCCAUGCCUGCCCCCCUCAUCUCAUUCAAACCCCACCCUAGUUUCCCUGAAGGAACAUUCCUUAGUCUCAAGGGCUAGCAUCCC,0.322
UCAGACAUGCAUCUGUGAUGUUCAUAGCCUUGUUUCAGUUAUAAUAGUUGUCUUGUUUUUUUCUUAAUUGAUUUUGUUAAUAAUACCUUAACACAGGGUAGGAAGAAGUG,6.77
UUUUAAAGCGUAGCUGAACCGACUGAAACUAUUAUGGAGAUUACAAUAAAUAAUUGCAUUCAAUCUGGUUCCAUAGUCUCAAUUUUGGAAAACAUGAACAGAUUUUUUUC,0.417
GGCGGACAGGGUACUCACUGUGCCGACGUGAGCAGACACAGCCAGAGGCUCAAGUGCCCUUGCCGAGUGUCCCCACUGCUCUUGGGGAGGCCCCGGCACAGCCCUGCAGA,0.306
UUUUCUUUUUCUCUCCCUUCCUUCUUGGUUUCCCAUAGUAUAAUAAGCAUGCAUACUUUAACUUCUAUAGUUUUCUCCUUUAGAGGGUCGUCUUCAGUUUUAGAGGUUUA,48.9

# Series 3
# Target: ABI1, truncated, D143A, DHFR fusion (Arabidopsis thaliana)
# Technique: DHFR PCA, deep sequencing
# Medium: yeast
# Notes: methotrexate growth selection, single substitutions
# Added: (+)-ABA 4.8 µM
# Baseline: wild-type fitted maximum
# Direction: higher = stronger binding
# Starting sequence: PYL1, truncated, DHFR fusion (Arabidopsis thaliana); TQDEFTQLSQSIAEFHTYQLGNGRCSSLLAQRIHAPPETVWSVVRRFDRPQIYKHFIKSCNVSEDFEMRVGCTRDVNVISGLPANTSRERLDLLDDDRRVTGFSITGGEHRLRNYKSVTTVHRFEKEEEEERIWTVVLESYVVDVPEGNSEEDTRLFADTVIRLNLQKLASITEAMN
Change,relative binding score [%]
Y141C,8.98
A175L,60.9
I52Y,51.7
K116Q,59
C72F,23.1
D75E,84.2
E147C,54.6
E125C,85.4
E130H,78.6
A30L,70.8
L169H,4.91
P146F,-6.97
L156W,49.9
G21A,74.5
I105Y,-8.17
P37C,40.9
L28K,10

# Series 4
# Target: Histone acetyltransferase KAT6A, both winged helices, GST fusion (KAT6A, Homo sapiens, UniProt Q92794, residues 1-181)
# Technique: protein binding microarray
# Form: double-stranded DNA, one strand shown
# Medium: in vitro
# Concentration: not given
# Notes: 8-mer, flanks averaged, mean of 2 arrays, mostly near background
# Baseline: not given
# Direction: higher = stronger binding
# Target sequence (chain): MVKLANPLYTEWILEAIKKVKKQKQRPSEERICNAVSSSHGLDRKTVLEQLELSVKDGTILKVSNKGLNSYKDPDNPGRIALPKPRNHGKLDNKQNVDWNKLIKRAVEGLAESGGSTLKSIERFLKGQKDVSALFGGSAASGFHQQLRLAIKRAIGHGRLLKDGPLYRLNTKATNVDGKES
Strand,E-score
CTGACATC,-0.124
CCTTCTCC,-0.269
CACCCAAC,-0.0757
CTGCAGGA,-0.169
CTACGTGA,-0.162
GAGCTTAA,-0.146
CTACCAAG,-0.165
CAATGCTG,-0.106
AATCCCCG,0.0877
CACAGATC,-0.0657
AAGTCCAA,-0.108
ACGTGTAG,0.00707
GGCTCCCA,-0.0677
GATCGGGA,0.0407
CTATGATA,-0.0878
AAGCACCG,0.0709
ATAAGTTC,-0.0178
CTAAGCCA,-0.26
GGTACCCA,-0.0855

# Series 5
# Target: Interferon regulatory factor 7, full length, phosphomimetic (IRF7, Homo sapiens, UniProt Q92985, residues 1-503, S471D/S472D/S475D/S476D/S477D/S483D/S484D/S487D)
# Sequence of UniProt Q92985 (whole entry, unmodified, looked up): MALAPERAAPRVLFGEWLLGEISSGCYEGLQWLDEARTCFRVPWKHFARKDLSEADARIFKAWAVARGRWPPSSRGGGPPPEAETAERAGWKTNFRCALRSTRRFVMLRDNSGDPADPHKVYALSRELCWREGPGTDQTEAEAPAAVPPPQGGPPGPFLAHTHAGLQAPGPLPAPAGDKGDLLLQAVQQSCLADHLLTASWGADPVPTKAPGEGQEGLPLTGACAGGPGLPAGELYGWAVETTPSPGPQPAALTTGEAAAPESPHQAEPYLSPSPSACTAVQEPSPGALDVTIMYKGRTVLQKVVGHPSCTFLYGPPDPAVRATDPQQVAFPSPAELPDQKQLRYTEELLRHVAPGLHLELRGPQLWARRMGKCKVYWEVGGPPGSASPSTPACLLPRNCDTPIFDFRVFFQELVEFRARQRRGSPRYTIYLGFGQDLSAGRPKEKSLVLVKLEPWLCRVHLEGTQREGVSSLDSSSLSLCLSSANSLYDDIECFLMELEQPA
# Technique: protein-binding microarray
# Form: double-stranded DNA, one strand shown
# Medium: in vitro
# Concentration: 2200 nM top
# Notes: 60-bp whole probe
# Added: salmon DNA 0.4 mg/ml
# Baseline: random background probes
# Direction: higher = stronger binding
# All sequences stand within: GCCTAGCAC … GTCTTGATTCGCTTGACGCTGCTG
Strand,fitted relative affinity [z-score]
GACGATTTCGGGCCTGGAGACGTGCTA,0.692
TTAGGTCCCCTTTTCCTTTAGTGCTAG,2.24
GACGGTCTCGGTCTTGGGACGTGCTAG,0.0361
TCAGCATTGCTTCTATAACTGTGCTAG,0.411
TTAGATGTCAGTCTCGATTAGTGCTAG,0.362
TTAGGTATCGGTTTTGGTTAGTGCTAG,2.62
TTAGGTTTCCTTTCCCTATAGTGCTAG,4.16
TTAGAACTAAGTCTCGATTAGTGCTAG,-0.411
TCATATTTAAGAACTATGACTGTGCTA,-0.204
TTAGGTTTCGGTATCGGGTAGTGCTAG,7.73
TTAGGTTTCGACTATCGGTTGGTGCTA,3.78
GACAGTATCCTTATCCTGACGTGCTAG,0.902
GACGGACTGCTACCGCTGACGTGCTAG,-0.189
AGAGTAAATTAAGTTAGAACGTGCTAG,-1.44
GACGGTTTCGGATTTCGGGACGTGCTA,7.06
TGGGCTCTAGGTTCTCTGAAGGTGCTA,-0.679
GACGGTTTCCTTCTCTTGACGTGCTAG,2.99
GACGATCTCAGTATCGAGACGTGCTAG,0.031

# For quick reference, copied from above (series 3):
Change,relative binding score [%]
C72F,23.1
D75E,84.2
E147C,54.6
E125C,85.4
E130H,78.6
A30L,70.8
L169H,4.91
P146F,-6.97
L156W,49.9
G21A,74.5
I105Y,-8.17
